Assay results gathered from unrelated publications.
Every numbered part comes from another study and shows a few of its results, in no order.

Series 1 — technique: RNA Bind-n-Seq; molecule type: RNA; sample: in vitro; concentration: 365 nM; relative to: no-protein control; reading: higher = stronger binding; endpoint: RBNS enrichment (R)
Target: RNA binding protein fox-1 homolog 2, RRM domain, GST-SBP tag (RBFOX2, Homo sapiens, UniProt O43251-10, residues 100-194)
Notes: natural RNA segment, single round, ends assumed
Shared flanks, not repeated: GGGAGUUCUACAGUCCGACGAUC … UGGAAUUCUCGGGUGCCAA
Construct (chain): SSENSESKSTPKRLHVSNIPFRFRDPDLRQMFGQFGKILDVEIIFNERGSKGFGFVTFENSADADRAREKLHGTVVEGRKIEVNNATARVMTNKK
ACCAUGUGGGGAUGCAGGAAAUCCUGCAGGGGUUGUGUGGGAGGCAGAUAGAUGGUGGUAUGUUGGGUGGAAAGACAAGUUGACCAAGUUCCCUUGUCGAUGCUGAUUCC: 1.13
CGCCCCUCAAAUACAGACAUCUGCUUUCAUGUGGAGACUGUCUCCAGGCCUUAUUGAGACCAGACCCCUAAGCCUCCAACCCCCCAGCAUGUCCCCUAAUGGGGACUGGC: 0.272
AUGUAUAGGCUGUGUUGGUUUAUGGAGACAAGUUGCAUCAAUGAAUUCACCUAGCAUAGGCUCUUUGAAAUGUCCUCUGUUUGAUAAAAAACAAUCCUGGGUACGUAUGU: 1.78
GCUGCAUGAACCCACGCACCUGUCCCUGACCUGCUGCUCUGGUCUCCUCACUAGCUCCAAUGUUCCCAUGUUUCCAUUUGUGUGUCUUAUACGUGUAUGUGUGCCCUCUC: 2.14
UUUUUCUUUACCUCAGUUAACUUAAGUAAUGGACCAAUAAACCUAUCAAAGCUGCUUCAUUUCUUCCGGAUCAUGUGCUCAUUUUUGUCUCUGUUAGGACUGGAAAAGCA: 0.872
AACACCCCUUGGUGCAGGCCUCCUGGCACUCGCCUGGCAUCUUGGUGUCCGGGUGCUCAGCUCCUGGGUCCCAGGGCAGUGGGACAGCUCCCAGGCUCUUCUCAUCAGAG: 0.264
CAGCCCAAAAAGAGGUGCUUGUGAGCACACCCACCCAAGUGAACCCAGUGGCUGCCAUGGUCCUCUUCAGGCUCAGAGAUGGGUCUAGCCCUGGCCUUGCUCUGAUCAGC: 0.387
GUUUAGAAAUUGCUCAAUAAGUCAUUUGGGGUUUGGCAUCCUGCCCAGCCACUUCCCAAACAUGAAGACCUCUCUGUUGCUUUAUGUUGUACAUGCCCCAUAGCCAUCCC: 1.14
CCCAGGUCCAGGAAAUCCAAUGUUGGUGAAGGCAGCCACUCUCUUGCUUGUCCCCAAAUCACCUAACCCUCAUCCAGGGCUAUUUUGGUGGGCAGGGACUGCCUCCUCCC: 0.291
CUCUCAGCUUCCAUAUGGAAGUGAGGAAGGGACCUGUGCCUAUUAGCCCUCUUGAUUCUCACCUGAUAGGGCAACAUCAAAGCUUGGUGUGGGUGUGGGUGCCAGCUCCA: 0.224
AUAAGUUCCUUUCCUUUUCUUUAAAGAAGUUGAAGUUUAGGAAUCCUUUGGUGCCAACUGGUGUUUGAAAGUAGGGACCUCAGAGGUUUACCUAGAGAACAGGUGGUUUU: 0.412
AAUAUGUCCCUUGCACACCACCCCUGAAGCACAUGGCAGUAGGAAACAGCAUAGGAUUGUAUGUGGGAGGUGGAUAGGUCGGUGAUGUGUGGAGCGGAAAAGCAGGUUGG: 1.9

Series 2 — technique: protein-binding microarray; molecule type: double-stranded DNA, one strand shown; sample: in vitro; concentration: 0.8 µM; notes: whole 60-bp probe, no competitor; reading: higher = stronger binding; endpoint: fluorescence intensity; shared flanks, not repeated: … GTCTTGATTCGCTTGACGCTGCTG
Target: Centromere-binding protein 1, full length, N-terminal tag (CBF1, Saccharomyces cerevisiae, UniProt P17106, residues 1-351)
UniProt P17106, sequence (whole entry, looked up): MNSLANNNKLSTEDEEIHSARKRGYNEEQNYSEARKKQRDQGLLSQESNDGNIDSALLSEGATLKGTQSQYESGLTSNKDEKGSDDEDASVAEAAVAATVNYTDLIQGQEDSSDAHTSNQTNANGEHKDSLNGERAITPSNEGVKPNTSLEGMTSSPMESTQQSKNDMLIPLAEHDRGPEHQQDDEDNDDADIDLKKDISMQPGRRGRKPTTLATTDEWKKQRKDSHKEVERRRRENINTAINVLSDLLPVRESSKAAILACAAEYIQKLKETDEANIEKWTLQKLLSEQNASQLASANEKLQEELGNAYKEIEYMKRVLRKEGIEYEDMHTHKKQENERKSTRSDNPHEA
GAAGAAATTAGAAAACAGGTGAAGACCACTATTTAG: 505 a.u.
CTAAAGGGAGGCTGTCACCAGGTTCCCCTATACTTC: 489 a.u.
GAAAGAAAAGGAGATGATGTTACACCCAATCACTAG: 487 a.u.
CTACAACGGTAGAGGTGACTCACTTGGAAGCTTTTC: 483 a.u.
CCTAACTACTATAAAAACATCATATAGCTTCGTACA: 537 a.u.
CTAGACGTTGAAGAGCACGCAGGCCTATGAAAATTC: 537 a.u.
CTAAATAACTGCCAAAACGTGGTTCTCGCACGCTTC: 567 a.u.
TGTACGAAGCTATGTCACCTCATTATAGTAGTTAGG: 535 a.u.
CCTAACTACTATACGTACGTGCGATAGCTTCGTACA: 494 a.u.
CTATGCAGAACTTACCTTGTCACGTTTGGAACTTTC: 1220 a.u.
GAACCACATCGGTAAGTGATGACCAGATAATGGTAG: 590 a.u.
TGTACGAAGCTATGACGTGTGTGTATAGTAGTTAGG: 545 a.u.
CTAGGTGATACACATCATCACATCCTATATGAATTC: 505 a.u.
TGTACGAAGCTATATCACATATATATAGTAGTTAGG: 550 a.u.
CTAGTGAAAATTAATATGGTGACGAACGACGGATTC: 490 a.u.
GAAAAAGCTGCACGTGACTAACTAGAACCATTTTAG: 19700 a.u.
GAAGATTTACAGAAAGCGCTGATGTTCACTGGGTAG: 519 a.u.
CTAGAAAAAAGAAATAGACACGTGTATGTCAAGTTC: 4920 a.u.
CTACTAACGGAGCGTCACCAACCTGACCTTCCTTTC: 526 a.u.
GAAGATCCTTCTTACCGCGTGCTGGGTGAAAAGTAG: 635 a.u.
GAAACGGTCGTCTACCACGTCGCTGGTGGAGCCTAG: 489 a.u.
GAATCCAGCATTCATTATCACATGGATCTTATATAG: 1560 a.u.
GAATTGTCATGTGAAGGCGTGATAGGTATGTCGTAG: 1310 a.u.
CTATTACTTCTATATCACGAGATGAGCATACGGTTC: 1780 a.u.
CTAAATGGTATATATGATGTTACAGGAAAACTTTTC: 507 a.u.

Series 3 — technique: RNA Bind-n-Seq; molecule type: RNA; sample: in vitro; concentration: 200 nM; notes: whole 134-nt RNA, ends assumed; with: 150 mM KCl; relative to: input library; reading: higher = stronger binding; endpoint: log2 enrichment
Target: Fragile X messenger ribonucleoprotein 1, C-terminal low-complexity region (Fmr1, Mus musculus, UniProt P35922)
Shared flanks, not repeated: GGGAGUUCUACAGUCCGACGAUC … UGGAAUUCUCGGGUGUCAAGG
CUCAAGUCCUGUGCUACACAUCGUAUGUACCGAAUCGGGGCGGGGCGGCGGGGAAAGUAUUAUGUUACGCCGUUCGGAUCUGCACUUCCA: 1.05
UCCUGUGCUACACAUCGUAUGUACCGAAUCGGGCCCCCCGGGGCCCCCCGGCCCCCCGGAAAGUAUUAUGUUACGCCGUUCGGAUCUGCA: -0.237
UCCUCAAGUCCUGUGCUACACAUCGUAUGUACCGAAUCGGUUUGGAGGAGGAAAGUAUUAUGUUACGCCGUUCGGAUCUGCACUUCCAGC: -0.634
GUCCUGUGCUACACAUCGUAUGUACCGAAUCGGUUUUUUGGUUUUUUGGUUUUUUGGGGAAAGUAUUAUGUUACGCCGUUCGGAUCUGCA: -0.741
UGUGAGCGGAGCCUGGAGGAGCUGCUGCACUACGUGGGCCAGCUGCGGGCUGAGCUGGCCAGCGCAGGUGGGUGGCCACCCUUGCAAGUG: 0.407
GUCCUGUGCUACACAUCGUAUGUACCGAAUCGGGGCCCCCGGCCCCCGGGCCCCCGGGGAAAGUAUUAUGUUACGCCGUUCGGAUCUGCA: -0.93
GUCCUGUGCUACACAUCGUAUGUACCGAAUCGGGCCCCCGGCCCCCGGGGCCCCCGGGAAAGUAUUAUGUUACGCCGUUCGGAUCUGCAC: -0.957
GUCCUGUGCUACACAUCGUAUGUACCGAAUCGGGGUUUUUGGUUUUUGGGGUUUUUGGGAAAGUAUUAUGUUACGCCGUUCGGAUCUGCA: -0.0141
UGGGAGGUGGAUUUUGUUUAUUUUUUUAGCUCAUUUCCAGGGGAGGGAAUUUUUUUUUAAUAUGUGUCAUGAAUAAAGUUGUUUUUGAAA: 0.267
CCUGUGCUACACAUCGUAUGUACCGAAUCGGGCCCCCCGGGCCCCCCGGGGCCCCCCGGGAAAGUAUUAUGUUACGCCGUUCGGAUCUGC: -0.765
AAGUCCUGUGCUACACAUCGUAUGUACCGAAUCGGGAAAGGGGAAAGGGGAAAGGGAAAGUAUUAUGUUACGCCGUUCGGAUCUGCACUU: 0.217
CUGUGCUACACAUCGUAUGUACCGAAUCGGCCCCCCCGGCCCCCCCGGGGCCCCCCCGGGGAAAGUAUUAUGUUACGCCGUUCGGAUCUG: -0.936
UCCUGUGCUACACAUCGUAUGUACCGAAUCGGGUUUUUUGGUUUUUUGGGUUUUUUGGGGAAAGUAUUAUGUUACGCCGUUCGGAUCUGC: -0.213
UCCUGUGCUACACAUCGUAUGUACCGAAUCGGGGAAAAAGGAAAAAGGGGAAAAAGGGGAAAGUAUUAUGUUACGCCGUUCGGAUCUGCA: -0.00146

Series 4 — technique: protein-binding microarray; molecule type: double-stranded DNA, one strand shown; sample: in vitro; concentration: 940 nM top; notes: 60-bp whole probe; with: salmon DNA 0.4 mg/ml; relative to: random background probes; reading: higher = stronger binding; endpoint: fitted relative affinity; shared flanks, not repeated: GCCTAGCAC … GTCTTGATTCGCTTGACGCTGCTG
Target: Interferon regulatory factor 5, full length, phosphomimetic (IRF5, Homo sapiens, UniProt Q13568-2, residues 1-514, S451D/S453D/S456D/S462D)
TTAGGACTGTGTTTCGGTTAGTGCTAG: 2.98 z-score
TTAGAACTGGGGTCTCGATTAGTGCTA: 0.94 z-score
TTAGGTTTCCTTCCCCTTTAGTGCTAG: 1.66 z-score
GACGGTCTCGGTTGCGGGACGTGCTAG: 4.3 z-score
TTAGATTTCAGTTCCCATTAGTGCTAG: 1.32 z-score
GACGGTCTCCGTATCGGGACGTGCTAG: 0.256 z-score
TGCTGTGTGCATCTATCTTAGTGCTAG: -0.342 z-score
TTAGTACTGAGTTTCGATTAGTGCTAG: 7.25 z-score
TTAGGTATCGGGTTTCGCTTAGTGCTA: 6.72 z-score
TTAGGTTTCGCTCTCGGTTAGTGCTAG: 10.3 z-score
TTAGATCTGGGGTATCGATTAGTGCTA: 2.8 z-score
GGCGGTTTCCTTTCCCTGACGTGCTAG: 2.26 z-score
GACGGACTGGACTTTCAGGACGTGCTA: -0.412 z-score
TTCATTTTCTGAATGTCCTCGTGCTAG: 0.53 z-score
TCAAGTCCCATGTTGCAGACTGTGCTA: 0.0895 z-score
ATAGGTCTCGGTTTCGGTTAGTGCTAG: 9.75 z-score
AATTTTGTCATCTATAATGGAGTGCTA: -0.12 z-score
GACGGTTTCGGGACTGGGGAAGTGCTA: 6.9 z-score
TCACTTTCACTTCTCCCACTGTGCTAG: 6.21 z-score
GACGGACTGGACTGTCGGGACGTGCTA: -0.585 z-score
TTAGGTTTCGGTATCGGTTTGTGCTAG: 15.8 z-score
TCAACTTTGAATTAGAAACTGTGCTAG: -0.177 z-score
TTAGATATCCGACTGGATTAGTGCTAG: -0.322 z-score
CACATCTGCTGTGGGAGCACGTGCTAG: -0.536 z-score
TTAGGTTTCGGTCTCGATTAGTGCTAG: 15.2 z-score

For quick reference, copied from above (series 4):
TTAGAACTGGGGTCTCGATTAGTGCTA: 0.94 z-score
TTAGGTTTCCTTCCCCTTTAGTGCTAG: 1.66 z-score
GACGGTCTCGGTTGCGGGACGTGCTAG: 4.3 z-score
TTAGATTTCAGTTCCCATTAGTGCTAG: 1.32 z-score
GACGGTCTCCGTATCGGGACGTGCTAG: 0.256 z-score
TGCTGTGTGCATCTATCTTAGTGCTAG: -0.342 z-score
TTAGTACTGAGTTTCGATTAGTGCTAG: 7.25 z-score
